# Published values pooled from the literature.
# Lines come from different studies, so protocols differ.
Compound,organism,test,test system,setting,scale,MIC
CC1(C)SC2C(NC(=O)C(NC(=O)C3=C(O)C(Cc4ccc([N+](=O)[O-])cc4)NC3=O)c3ccccc3)C(=O)N2C1C(=O)O (stereo not shown),Escherichia coli,broth microdilution,ATCC 25922 wild type,no clavulanic acid,,25 µg/mL
CCCCCCC#Cc1cncc(-c2nnc(SCc3ccc(Cl)cc3)n2C)c1,Mycolicibacterium smegmatis,,,,no activity below value,≥ 100 µM
Cc1ccc(CCC(=O)Nc2nnc(S(N)(=O)=O)s2)cc1,Lactobacillus gasseri,,ATCC 19992,,,> 784 µM
CC1(C)SC2C(NC(=O)C(NC(=O)C3=C(O)C(Cc4ccco4)NC3=O)c3ccccc3)C(=O)N2C1C(=O)O (stereo not shown),Escherichia coli,broth microdilution,ATCC 25922 wild type,together with: clavulanic acid 6 µg/mL,,6.25 µg/mL
CC(=O)ON=C1C=CC(=C(C#N)c2ccccc2)C=C1,Clavispora lusitaniae,broth dilution,ATCC 34449,"48 h, 37 °C",,64 µg/mL
N=C(N)c1ccc(OCc2ccc(-c3ccccc3)cc2COc2ccc(C(=N)N)cc2)cc1,Escherichia coli,,mcr-1 polymyxin-resistant,"20 h, compound alone",,200 µg/mL
C[C@H]1[C@H](NC(=O)/C(=N\OC(C)(C)C(=O)O)c2csc(N)n2)C(=O)N1S(=O)(=O)O,Serratia marcescens,agar dilution,ATCC 21074 susceptible,,,0.125 µg/mL
N=C(N)c1ccc(OCc2ccc(Br)cc2COc2ccc(C(=N)N)cc2)cc1,Escherichia coli,,BW25113,"compound alone, together with: erythromycin checkerboard",,200 µg/mL
CC1(C)S[C@@H]2[C@H](NC(=O)[C@H](N)c3ccccc3)C(=O)N2[C@H]1C(=O)O,Pseudomonas aeruginosa,,clinical isolate RKI-No_479/15,,,> 16 µg/mL
C[C@@H](c1ncncc1F)[C@](O)(Cn1cncn1)c1ccc(F)cc1F,Blastomyces dermatitidis,,BD-2,,,≤ 0.03 µg/mL
CCCCCCCCCC(=O)N[C@@H](Cc1c[nH]c2ccccc12)C(=O)N[C@H](CC(N)=O)C(=O)N[C@@H](CC(=O)O)C(=O)N[C@@H]1C(=O)NCC(=O)N[C@@H](CCCN)C(=O)N[C@@H](CC(=O)O)C(=O)N[C@H](C)C(=O)N[C@@H](CC(=O)O)C(=O)NCC(=O)N[C@H](CO)C(=O)N[C@@H]([C@H](C)CC(=O)O)C(=O)N[C@@H](CC(=O)c2ccccc2N)C(=O)O[C@@H]1C,Staphylococcus aureus,,SH1000,"together with: menaquinone-4, molar ratio 0.5",,1 µg/mL
N=C(N)c1ccc(OCc2cccc(COc3ccc(C(=N)N)cc3)c2)cc1,Escherichia coli,,BW25113,"compound alone, rifampicin checkerboard",,> 200 µg/mL
N#CC(=C1C=CC(=NOC(=O)OCc2ccccc2)C=C1)c1ccccc1,Clavispora lusitaniae,broth dilution,ATCC 34449,"48 h, 37 °C",,128 µg/mL
COc1cc(C=O)ccc1OC1=C(Cl)C(=O)c2ccccc2C1=O,Serratia marcescens,broth microdilution,MTCC 4301,,,10 µg/mL
CNC(C)C1CCC(N)C(OC2C(N)CC(N)C(OC3OCC(C)(O)C(NC)C3O)C2O)O1 (stereo not shown),Pseudomonas aeruginosa,,clinical isolate RKI-No_254/15,,,4 µg/mL
CC(C)C[C@@H]1NC(=O)[C@@H](Cc2ccccc2)NC(=O)[C@H](CCN)NC(=O)[C@@H](NC(=O)[C@H](CCN)NC(=O)[C@@H](N)[C@@H](C)O)CCNC(=O)[C@H]([C@@H](C)O)NC(=O)[C@H](CCN)NC(=O)[C@H](CCN)NC1=O,Escherichia coli,checkerboard,552100,compound alone,,> 200 µg/mL

# For quick reference, copied from above:
Compound,organism,test,test system,setting,scale,MIC
COc1cc(C=O)ccc1OC1=C(Cl)C(=O)c2ccccc2C1=O,Serratia marcescens,broth microdilution,MTCC 4301,,,10 µg/mL
CNC(C)C1CCC(N)C(OC2C(N)CC(N)C(OC3OCC(C)(O)C(NC)C3O)C2O)O1 (stereo not shown),Pseudomonas aeruginosa,,clinical isolate RKI-No_254/15,,,4 µg/mL
